Measurements collected from several papers.
Every numbered part comes from another study and shows a few of its results, in no order.
Sequence of UniProt P32298 (whole entry, looked up): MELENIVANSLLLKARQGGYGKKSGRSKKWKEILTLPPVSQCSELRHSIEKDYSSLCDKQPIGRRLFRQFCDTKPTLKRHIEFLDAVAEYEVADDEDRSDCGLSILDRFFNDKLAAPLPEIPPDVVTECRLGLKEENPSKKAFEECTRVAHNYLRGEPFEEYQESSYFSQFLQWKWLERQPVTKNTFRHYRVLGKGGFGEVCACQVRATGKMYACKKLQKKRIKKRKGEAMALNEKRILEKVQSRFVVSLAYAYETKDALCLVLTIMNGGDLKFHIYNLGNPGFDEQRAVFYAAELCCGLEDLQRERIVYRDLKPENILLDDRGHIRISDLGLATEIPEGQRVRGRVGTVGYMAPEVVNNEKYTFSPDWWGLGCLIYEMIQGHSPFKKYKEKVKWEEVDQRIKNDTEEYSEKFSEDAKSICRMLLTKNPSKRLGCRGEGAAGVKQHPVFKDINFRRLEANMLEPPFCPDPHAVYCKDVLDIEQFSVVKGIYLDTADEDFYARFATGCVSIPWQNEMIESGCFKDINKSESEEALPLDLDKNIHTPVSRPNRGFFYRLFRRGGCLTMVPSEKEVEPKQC
Sequence of UniProt Q96D53 (whole entry, looked up): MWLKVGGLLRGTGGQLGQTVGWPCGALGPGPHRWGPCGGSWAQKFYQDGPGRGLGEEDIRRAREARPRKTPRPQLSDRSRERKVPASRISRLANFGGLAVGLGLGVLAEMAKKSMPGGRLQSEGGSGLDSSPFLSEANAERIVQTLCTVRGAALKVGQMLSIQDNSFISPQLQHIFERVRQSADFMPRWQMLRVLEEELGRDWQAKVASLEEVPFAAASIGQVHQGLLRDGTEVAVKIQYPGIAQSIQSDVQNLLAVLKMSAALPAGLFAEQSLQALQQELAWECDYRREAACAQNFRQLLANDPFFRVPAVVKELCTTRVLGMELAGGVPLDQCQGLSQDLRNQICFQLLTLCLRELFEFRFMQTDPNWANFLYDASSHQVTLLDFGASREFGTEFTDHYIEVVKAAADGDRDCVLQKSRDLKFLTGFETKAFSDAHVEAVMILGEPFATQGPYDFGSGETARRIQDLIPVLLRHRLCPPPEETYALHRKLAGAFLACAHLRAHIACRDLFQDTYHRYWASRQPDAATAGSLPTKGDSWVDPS
Sequence of UniProt Q8WTQ7 (whole entry, looked up): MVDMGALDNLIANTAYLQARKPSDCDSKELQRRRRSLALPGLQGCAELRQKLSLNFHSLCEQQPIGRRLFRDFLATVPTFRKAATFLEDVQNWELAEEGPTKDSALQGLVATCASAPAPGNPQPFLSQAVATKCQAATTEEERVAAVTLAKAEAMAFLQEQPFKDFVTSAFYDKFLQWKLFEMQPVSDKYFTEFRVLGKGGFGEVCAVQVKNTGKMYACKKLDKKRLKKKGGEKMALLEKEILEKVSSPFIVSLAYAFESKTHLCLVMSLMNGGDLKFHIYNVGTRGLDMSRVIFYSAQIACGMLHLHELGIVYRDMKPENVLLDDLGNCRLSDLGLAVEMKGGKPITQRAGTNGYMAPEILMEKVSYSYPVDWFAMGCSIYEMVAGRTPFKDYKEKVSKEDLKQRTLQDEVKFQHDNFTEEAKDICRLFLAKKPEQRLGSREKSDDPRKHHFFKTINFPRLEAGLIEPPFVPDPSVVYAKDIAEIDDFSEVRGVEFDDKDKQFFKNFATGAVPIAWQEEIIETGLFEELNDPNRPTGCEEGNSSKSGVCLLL
Sequence of UniProt Q7KZI7 (whole entry, looked up): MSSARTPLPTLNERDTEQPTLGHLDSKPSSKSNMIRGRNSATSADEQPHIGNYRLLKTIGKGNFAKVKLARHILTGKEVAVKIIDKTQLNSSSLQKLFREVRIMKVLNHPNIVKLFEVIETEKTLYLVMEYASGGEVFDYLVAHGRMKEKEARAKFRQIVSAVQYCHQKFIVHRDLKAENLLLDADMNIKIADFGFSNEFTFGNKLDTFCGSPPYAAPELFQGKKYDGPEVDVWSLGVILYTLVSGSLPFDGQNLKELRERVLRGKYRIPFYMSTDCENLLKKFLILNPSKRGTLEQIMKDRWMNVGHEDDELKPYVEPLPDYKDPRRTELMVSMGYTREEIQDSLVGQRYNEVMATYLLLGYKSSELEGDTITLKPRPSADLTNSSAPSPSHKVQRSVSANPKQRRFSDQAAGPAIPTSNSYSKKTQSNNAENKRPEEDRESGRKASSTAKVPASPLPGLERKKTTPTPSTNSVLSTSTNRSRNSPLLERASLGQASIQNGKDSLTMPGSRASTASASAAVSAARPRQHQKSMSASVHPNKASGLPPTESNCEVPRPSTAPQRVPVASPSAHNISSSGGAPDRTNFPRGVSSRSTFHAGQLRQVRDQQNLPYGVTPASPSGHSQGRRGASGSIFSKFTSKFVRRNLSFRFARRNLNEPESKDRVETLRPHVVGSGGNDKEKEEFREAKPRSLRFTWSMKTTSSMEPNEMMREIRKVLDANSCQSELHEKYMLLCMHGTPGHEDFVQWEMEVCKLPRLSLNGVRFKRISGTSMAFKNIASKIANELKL
Sequence of UniProt P11802 (whole entry, looked up): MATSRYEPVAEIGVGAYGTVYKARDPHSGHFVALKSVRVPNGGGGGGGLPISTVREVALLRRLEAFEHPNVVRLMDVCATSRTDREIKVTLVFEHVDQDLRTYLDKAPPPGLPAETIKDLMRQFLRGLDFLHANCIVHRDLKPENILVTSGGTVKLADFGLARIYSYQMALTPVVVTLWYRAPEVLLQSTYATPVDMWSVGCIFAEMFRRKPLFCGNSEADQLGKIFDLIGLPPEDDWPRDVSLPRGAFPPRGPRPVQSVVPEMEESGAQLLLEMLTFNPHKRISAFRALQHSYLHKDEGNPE
Sequence of UniProt Q16816 (whole entry, looked up): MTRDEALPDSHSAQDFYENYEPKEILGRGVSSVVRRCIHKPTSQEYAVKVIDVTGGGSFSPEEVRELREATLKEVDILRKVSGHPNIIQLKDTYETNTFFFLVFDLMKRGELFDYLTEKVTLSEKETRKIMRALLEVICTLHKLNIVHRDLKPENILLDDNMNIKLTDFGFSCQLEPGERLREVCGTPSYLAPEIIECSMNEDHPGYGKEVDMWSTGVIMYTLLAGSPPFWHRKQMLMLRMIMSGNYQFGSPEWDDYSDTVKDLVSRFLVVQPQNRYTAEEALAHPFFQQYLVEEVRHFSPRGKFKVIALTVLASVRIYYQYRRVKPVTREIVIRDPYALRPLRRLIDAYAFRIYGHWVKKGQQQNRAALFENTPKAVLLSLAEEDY
Sequence of UniProt Q9BVS4 (whole entry, looked up): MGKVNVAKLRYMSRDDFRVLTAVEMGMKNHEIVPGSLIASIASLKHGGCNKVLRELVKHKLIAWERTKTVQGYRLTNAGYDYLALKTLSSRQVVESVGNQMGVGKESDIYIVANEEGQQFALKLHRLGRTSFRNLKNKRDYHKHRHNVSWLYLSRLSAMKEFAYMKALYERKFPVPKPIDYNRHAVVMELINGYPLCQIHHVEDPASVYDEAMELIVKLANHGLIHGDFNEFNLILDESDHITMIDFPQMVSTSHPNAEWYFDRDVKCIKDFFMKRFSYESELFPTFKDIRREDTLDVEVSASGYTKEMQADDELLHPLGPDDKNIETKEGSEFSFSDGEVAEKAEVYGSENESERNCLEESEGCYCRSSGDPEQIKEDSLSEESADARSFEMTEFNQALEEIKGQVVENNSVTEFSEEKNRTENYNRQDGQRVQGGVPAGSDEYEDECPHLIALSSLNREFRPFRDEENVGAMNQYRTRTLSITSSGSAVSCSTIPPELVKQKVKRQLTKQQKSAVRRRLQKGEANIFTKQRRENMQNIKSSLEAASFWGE
Sequence of UniProt Q96PN8 (whole entry, looked up): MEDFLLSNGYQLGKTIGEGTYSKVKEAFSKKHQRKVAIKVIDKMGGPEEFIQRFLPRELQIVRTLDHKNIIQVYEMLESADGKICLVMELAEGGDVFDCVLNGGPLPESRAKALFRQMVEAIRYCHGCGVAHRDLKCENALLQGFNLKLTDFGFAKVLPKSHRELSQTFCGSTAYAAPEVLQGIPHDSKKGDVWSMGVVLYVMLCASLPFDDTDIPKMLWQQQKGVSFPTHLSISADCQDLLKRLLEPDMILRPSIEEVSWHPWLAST

Study 1
Organism: Sarcocystis neurona
Observed: parasite growth
Tested at: 10 µM
Time: 96 h
Setting: secondary screen
SMILES | inhibition [%]
COc1ccccc1OCC(O)CN1CCN(CC(=O)Nc2c(C)cccc2C)CC1 (stereo not drawn) | -17.2
COc1ccc(OC)c(C(O)CNC(=O)CN)c1 (stereo not drawn) | -16.9
CCN1CCN(C(=O)N[C@@H](C(=O)N[C@@H]2C(=O)N3[C@@H]2SC(C)(C)[C@@H]3C(=O)O)c2ccccc2)C(=O)C1=O | -34.6
NC[C@H]1CC[C@H](C(=O)Oc2ccc(CCC(=O)O)cc2)CC1 | -26.1

Study 2
Compound: CN(C)c1ncnc(-c2ccc3nc(Nc4cc(CN5CCN(C(=O)CC(F)(F)F)CC5)ccn4)[nH]c3c2)c1Cl
Observed: cell-free assay
Technique: competition with immobilised ligand
Tested at: 1 µM
target | remaining binding [%]
TIE1 (Homo sapiens, UniProt P35590) | 66
NUAK2 (Homo sapiens, UniProt Q9H093) | 66
STK25 (Homo sapiens, UniProt O00506) | 100
MAPK14 (Homo sapiens, UniProt Q16539) | 100
COQ8B (Homo sapiens, UniProt Q96D53) | 90
RET (Homo sapiens, UniProt P07949) | 77
Cyclin-dependent kinase 4, with cyclin D1 (CDK4, Homo sapiens, UniProt P11802) | 69
PAK4 (Homo sapiens, UniProt O96013) | 100
Ribosomal protein S6 kinase alpha-1, N-terminal kinase domain (RPS6KA1, Homo sapiens, UniProt Q15418) | 100
PRKD2 (Homo sapiens, UniProt Q9BZL6) | 84
GRK7 (Homo sapiens, UniProt Q8WTQ7) | 90
Tyrosine-protein kinase ABL1, phosphorylated (ABL1, Homo sapiens, UniProt P00519, T315I) | 51
MINK1 (Homo sapiens, UniProt Q8N4C8) | 57
GRK4 (Homo sapiens, UniProt P32298) | 100
AXL (Homo sapiens, UniProt P30530) | 57
MST1R (Homo sapiens, UniProt Q04912) | 98
MARK2 (Homo sapiens, UniProt Q7KZI7) | 68
MAST1 (Homo sapiens, UniProt Q9Y2H9) | 86
TSSK3 (Homo sapiens, UniProt Q96PN8) | 62
RPS6KB1 (Homo sapiens, UniProt P23443) | 92
PHKG1 (Homo sapiens, UniProt Q16816) | 96
ACVR1 (Homo sapiens, UniProt Q04771) | 88
TSSK1B (Homo sapiens, UniProt Q9BXA7) | 100
RIOK2 (Homo sapiens, UniProt Q9BVS4) | 81

Study 3
Target: RING finger protein unkempt homolog, zinc fingers 1-6, GST-SBP tag (UNK, Homo sapiens, UniProt Q9C0B0, residues 30-357)
Technique: RNA Bind-n-Seq
Form: RNA
Medium: in vitro
Tested at: not given
Setting: RNA with constant flanks, human and mouse sites, ends assumed
Baseline: input RNA pool
Reading: higher = stronger binding
Constant ends, left off below: GGGAGUUCUACAGUCCGACGAUC … CAACAGAGGAUUGAGCAUCA
Target sequence (chain): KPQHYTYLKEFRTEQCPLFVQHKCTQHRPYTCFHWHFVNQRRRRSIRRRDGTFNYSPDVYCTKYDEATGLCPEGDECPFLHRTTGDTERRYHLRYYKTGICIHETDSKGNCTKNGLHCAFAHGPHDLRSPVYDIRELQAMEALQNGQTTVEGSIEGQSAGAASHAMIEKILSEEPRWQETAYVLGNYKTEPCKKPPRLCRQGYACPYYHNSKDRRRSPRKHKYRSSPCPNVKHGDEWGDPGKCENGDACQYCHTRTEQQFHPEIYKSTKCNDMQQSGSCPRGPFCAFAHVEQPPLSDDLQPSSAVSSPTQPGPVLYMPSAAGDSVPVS
Oligonucleotide | bound/input enrichment
GAACAAUCCUUGGAAACUGCUAAGGCAGUAAAGGAGCGCUAUAGUUAUGUCUGCCCAGAUUUAGUAAAAGAAUUUAACAAGUAUGAUACAGAUGGGUCAAAAUGGAUUAAACAGUAUACU | 4.63 ratio
UUUAAUGUAUAAAGAUUUUCUAGGAAAUGAUAUUGUGUAUUAAGACAUUCCUUAAUUAAAUUAGGACAAAAUGGCUGCUGUAUAUUUACAAUAUGGAAUUCUGAGUUAAGUACCGCCCUU | 0.411 ratio
AAGAGUGCAGAUGACUUUAUAGAUAAGCACAUUGCUGAGCUAAUAUUUUACAUGGAAGAGCUUAGAGCACAUGUCAGGAAGUAUGGGCCUGUCAUGCAGAGGUACUACGUGCAAUACCUC | 0.503 ratio
CCCUGACAGAGCACUACAGCAUCAAAGUAAAUCUUUGGGGACAGUGUAGCCCAUCUGCAUCCUAUUUAAUUUCUUCCCUUCUCCCCACCAGUGUUGUCACAGGGCUAUGUUGCUUAAAGG | 0.735 ratio
GUCGAUGAGAUGAUCAGGGAAGCAGACAUUGACGGGGACGGUCAGGUAAACUACGAAGAGUUUGUACAAAUGAUGACAGCGAAGUGAAGACAUUGUACAGAAUGUGUUAAAUUUCUUGUA | 0.292 ratio
ACCCUGUCUGUAGGAGGAAAAACUGUAUCACGUUUUCGUAAAGCUACAUCCAUAUUGGAAUUUUACCGGGAACUUGGAUUGCCGCCGAAACAGACAGUUAAAAUCUUUAAUAUAACAGAU | 0.262 ratio
AUCCCAAACCAGCUGUGUAAAUGAGUAUGGAAGAUUAUGAUUUCCUGUUCAAAAUUGUUUUAAUUGGCAACGCUGGAGUGGGAAAGACGUGCCUAGUCCGAAGAUUCACUCAGGGUCUUU | 0.149 ratio
AGCUCUGUCUAUCCUACCAAGGAUGAGGAGAACAAUCCCCUUGAGACAGAAUAUGGCCUUUCUGUCUACAAGGAUCACCAGACCAUCACCAUCCAGGAGAUGCCGGAGAAGGCCCCAGCC | 0.086 ratio

Study 4
Target: BDNF/NT-3 growth factors receptor (NTRK2, Homo sapiens, UniProt Q16620)
Sequence of UniProt Q16620 (whole entry, looked up): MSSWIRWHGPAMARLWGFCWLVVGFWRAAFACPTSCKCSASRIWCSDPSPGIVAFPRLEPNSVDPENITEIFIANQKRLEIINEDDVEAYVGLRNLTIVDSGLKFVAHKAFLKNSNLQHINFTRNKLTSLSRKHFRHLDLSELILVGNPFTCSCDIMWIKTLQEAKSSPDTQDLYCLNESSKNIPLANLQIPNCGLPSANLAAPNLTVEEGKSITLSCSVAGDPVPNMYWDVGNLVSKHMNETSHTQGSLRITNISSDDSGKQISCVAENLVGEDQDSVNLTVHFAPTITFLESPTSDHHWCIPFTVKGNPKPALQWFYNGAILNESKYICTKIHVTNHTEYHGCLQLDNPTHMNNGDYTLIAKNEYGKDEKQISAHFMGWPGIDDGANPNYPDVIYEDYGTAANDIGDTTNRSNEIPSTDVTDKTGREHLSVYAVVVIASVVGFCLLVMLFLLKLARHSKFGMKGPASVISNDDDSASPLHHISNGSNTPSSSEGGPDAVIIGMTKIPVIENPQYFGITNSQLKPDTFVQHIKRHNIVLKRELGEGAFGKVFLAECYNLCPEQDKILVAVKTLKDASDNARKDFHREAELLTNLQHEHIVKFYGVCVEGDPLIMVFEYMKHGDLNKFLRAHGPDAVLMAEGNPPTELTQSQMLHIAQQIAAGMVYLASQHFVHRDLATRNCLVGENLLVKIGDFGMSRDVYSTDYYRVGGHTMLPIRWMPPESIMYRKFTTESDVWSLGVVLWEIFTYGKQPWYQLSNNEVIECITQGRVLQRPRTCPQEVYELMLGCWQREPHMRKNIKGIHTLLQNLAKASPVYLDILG
Observed: enzyme activity
Action: inhibitor
Tested at: 0.5 µM
Baseline: control
Compound | remaining activity [%]
Cc1nc(-c2ccccc2)c(-c2ccncc2)o1 | 103
N#CC(C#N)=C(N)/C(C#N)=C/c1ccc(O)cc1 | 95.4
O=C1NC(=O)C(c2cn(CCCO)c3ncccc23)=C1c1cnccn1 | 99.7
COc1cc2ncnc(Nc3ccc(Oc4ccccc4)cc3)c2cc1OC | 103
Nc1ncnc2n[nH]c(Nc3ccc(F)cc3)c12 | 101
CN(C)c1ccc(C=C2C(=O)Nc3ccccc32)cc1 | 54.8
Nc1ccc2ncnc(NCCc3ccc(Oc4ccccc4)cc3)c2c1 | 104
CO[C@H]1C[C@@H]2CC[C@@H](C)[C@@](O)(O2)C(=O)C(=O)N2CCCC[C@H]2C(=O)O[C@H]([C@H](C)C[C@@H]2CC[C@@H](O)[C@H](OC)C2)CC(=O)[C@H](C)/C=C(\C)[C@@H](O)[C@@H](OC)C(=O)[C@H](C)C[C@H](C)/C=C/C=C/C=C/1C | 106
O=C(Nc1cccc(Nc2cc(Nc3cccc(C(F)(F)F)c3)ncn2)c1)C1CC1 | 100
O=C(O)c1ccc2c3c1cccc3c(=O)n1c3ccccc3nc21 | 98.4
O=c1c2ccccc2[nH]c(=S)n1CCN1CCC(=C(c2ccc(F)cc2)c2ccc(F)cc2)CC1 | 106
Cc1cccc(-c2[nH]c(C(C)(C)C)nc2-c2ccc3c(c2)OCO3)n1 | 96.4
NCCNc1ncc(C(N)=O)c(Nc2cccc(C(F)(F)F)c2)n1 | 92.4
COc1ccc(C(=O)Nc2sc3c(c2C(N)=O)CCCC3)cc1OC | 67.4

Other studies, line by line
SMILES | technique | species | dose | endpoint | result
CC(C)n1cnc(-c2ccc(F)cc2)c1-c1ncc(C(=O)Nc2ccc(N3CCN(C)CC3)cc2)[nH]1 | phase 2a clinical trial | patients with idiopathic pulmonary fibrosis | 30 mg once daily | patients with Gingivitis TEAE | 0%
